Published values pooled from the literature.
A part holds a random share of what one study measured.

Sample 1
Target: Sal-like protein 4, full length isoform B (SALL4, Homo sapiens, UniProt Q9UJQ4-2, residues 1-616)
Technique: universal PBM
Form: double-stranded DNA, one strand shown
Matrix: in vitro
Concentration: not given
Notes: 8-mer, flanks averaged, mean of replicates
Direction: higher = stronger binding
Construct (chain): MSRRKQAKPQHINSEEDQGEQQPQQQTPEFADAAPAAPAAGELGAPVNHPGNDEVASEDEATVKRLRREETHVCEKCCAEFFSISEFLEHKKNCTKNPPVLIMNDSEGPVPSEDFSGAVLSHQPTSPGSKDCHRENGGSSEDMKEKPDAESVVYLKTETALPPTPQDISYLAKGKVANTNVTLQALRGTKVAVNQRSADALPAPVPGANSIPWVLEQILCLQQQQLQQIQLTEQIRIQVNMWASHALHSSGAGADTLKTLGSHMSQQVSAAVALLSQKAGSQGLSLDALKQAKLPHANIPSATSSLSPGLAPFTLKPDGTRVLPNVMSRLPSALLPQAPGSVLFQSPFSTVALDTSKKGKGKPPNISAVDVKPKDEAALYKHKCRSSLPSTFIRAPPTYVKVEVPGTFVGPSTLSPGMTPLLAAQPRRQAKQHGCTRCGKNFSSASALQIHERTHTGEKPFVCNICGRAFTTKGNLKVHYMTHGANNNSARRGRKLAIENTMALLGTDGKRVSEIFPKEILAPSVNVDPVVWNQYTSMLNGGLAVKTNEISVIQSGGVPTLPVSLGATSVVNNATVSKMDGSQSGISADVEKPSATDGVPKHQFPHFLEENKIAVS
Sequence | E-score
GGCTGGTA | -0.277
CGGTCATA | 0.161
CGTCCGAA | -0.224
CGCGCCCG | -0.329
ACGGCTAC | -0.0963
CTCGGCAG | -0.209
CGGAAACA | 0.0267

Sample 2
Target: Histone acetyltransferase KAT6A, winged helix 2, GST fusion (KAT6A, Homo sapiens, UniProt Q92794, residues 85-181)
Technique: protein binding microarray
Form: double-stranded DNA, one strand shown
Matrix: in vitro
Concentration: not given
Notes: 8-mer, flanks averaged, mean of 2 arrays, mostly near background
Relative to: not given
Direction: higher = stronger binding
Residues (chain): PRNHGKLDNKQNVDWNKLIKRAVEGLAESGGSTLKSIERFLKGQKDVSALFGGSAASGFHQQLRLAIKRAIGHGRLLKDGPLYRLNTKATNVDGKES
Sequence | E-score
ATCCCATA | -0.0131
AAGCGCCG | 0.0154
CCTACTAG | -0.179
CGGAGGGC | 0.135
GATTAACC | -0.0412
ATGTGGTA | -0.0442
GCTCCTAC | 0.0609

Sample 3
Target: POU, POU domain (Salpingoeca helianthica)
Technique: Spec-seq
Form: double-stranded DNA, one strand shown
Matrix: in vitro
Concentration: not given
Notes: whole probe, mean of replicates
Relative to: not given
Direction: lower = stronger binding
Constant ends, left off below: GAGTCGTCTCGTCAGCACA … CCGTAGAGCACTCAGGTC
Residues (chain): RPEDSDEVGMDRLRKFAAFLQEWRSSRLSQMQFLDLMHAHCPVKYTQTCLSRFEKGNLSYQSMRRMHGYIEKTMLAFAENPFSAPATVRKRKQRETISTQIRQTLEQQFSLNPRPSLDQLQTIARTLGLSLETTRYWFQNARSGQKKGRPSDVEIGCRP
Sequence | relative binding energy [ln ratio]
ATATAAT | -0.0527
TCGGTAT | 1.17
TGCACGG | 1.23
TGCCCCC | 1.32
TTTATAT | -0.249

Further values, each from its own experiment
Substance | target | assay | test system | setting | scale | measurement | value
PhoQ, residues 284 288 289 292 302 303 TSTLRA | PhoP, residues 12 14 15 18 19 QWHVF (Escherichia coli, UniProt P23836) | Sort-seq, refers to: YFP reporter | E. coli | PhoQ-PhoP variant library, together with: 10 µM Mg2+ | relative to: high Mg2+ state, higher = stronger signaling | fold induction | 6.14

Excerpt of the above (sample 1):
Sequence | E-score
ACGGCTAC | -0.0963
CTCGGCAG | -0.209
CGCGCCCG | -0.329
